Assay results gathered from unrelated publications.
Parts stem from different laboratories: compare values within a part only.
Sequence of UniProt Q9P286 (whole entry, looked up): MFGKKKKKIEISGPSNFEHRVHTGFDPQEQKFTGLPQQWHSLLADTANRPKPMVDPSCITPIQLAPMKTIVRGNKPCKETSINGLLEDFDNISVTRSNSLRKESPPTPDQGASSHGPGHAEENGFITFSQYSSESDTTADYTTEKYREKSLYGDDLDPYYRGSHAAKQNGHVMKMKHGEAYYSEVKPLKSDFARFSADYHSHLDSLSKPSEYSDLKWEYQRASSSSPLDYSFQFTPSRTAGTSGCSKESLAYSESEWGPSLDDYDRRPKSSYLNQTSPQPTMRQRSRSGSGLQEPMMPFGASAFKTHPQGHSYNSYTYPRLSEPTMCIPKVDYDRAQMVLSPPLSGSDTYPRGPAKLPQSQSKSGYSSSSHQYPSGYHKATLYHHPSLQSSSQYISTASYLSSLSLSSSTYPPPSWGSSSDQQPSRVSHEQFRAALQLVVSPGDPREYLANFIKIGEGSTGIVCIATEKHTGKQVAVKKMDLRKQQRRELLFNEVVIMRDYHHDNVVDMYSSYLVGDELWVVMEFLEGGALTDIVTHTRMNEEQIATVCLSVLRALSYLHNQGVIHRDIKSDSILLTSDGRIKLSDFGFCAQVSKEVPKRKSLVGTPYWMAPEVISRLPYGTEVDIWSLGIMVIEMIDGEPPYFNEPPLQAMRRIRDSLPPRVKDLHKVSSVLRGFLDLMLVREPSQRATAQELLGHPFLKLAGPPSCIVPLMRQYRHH
Sequence of UniProt Q04759 (whole entry, looked up): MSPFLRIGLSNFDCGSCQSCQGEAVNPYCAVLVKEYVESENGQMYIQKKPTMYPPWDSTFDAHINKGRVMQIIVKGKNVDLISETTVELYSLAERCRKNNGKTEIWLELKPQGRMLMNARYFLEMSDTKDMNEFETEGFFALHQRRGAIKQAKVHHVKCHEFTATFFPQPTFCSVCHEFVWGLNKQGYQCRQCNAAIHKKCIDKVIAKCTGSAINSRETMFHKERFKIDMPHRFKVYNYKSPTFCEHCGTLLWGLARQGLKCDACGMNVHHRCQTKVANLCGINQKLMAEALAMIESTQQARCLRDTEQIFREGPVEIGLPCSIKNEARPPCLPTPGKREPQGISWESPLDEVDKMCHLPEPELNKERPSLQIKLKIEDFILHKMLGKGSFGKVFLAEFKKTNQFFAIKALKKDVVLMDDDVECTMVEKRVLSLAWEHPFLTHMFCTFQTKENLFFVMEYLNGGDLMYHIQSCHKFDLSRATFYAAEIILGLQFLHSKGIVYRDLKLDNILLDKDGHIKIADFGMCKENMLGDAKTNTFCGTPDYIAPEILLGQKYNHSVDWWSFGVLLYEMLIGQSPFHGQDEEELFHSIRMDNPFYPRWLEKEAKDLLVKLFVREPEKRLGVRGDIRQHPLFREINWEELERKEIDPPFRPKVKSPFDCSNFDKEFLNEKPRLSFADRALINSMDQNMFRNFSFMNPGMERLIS
Sequence of UniProt Q00535 (whole entry, looked up): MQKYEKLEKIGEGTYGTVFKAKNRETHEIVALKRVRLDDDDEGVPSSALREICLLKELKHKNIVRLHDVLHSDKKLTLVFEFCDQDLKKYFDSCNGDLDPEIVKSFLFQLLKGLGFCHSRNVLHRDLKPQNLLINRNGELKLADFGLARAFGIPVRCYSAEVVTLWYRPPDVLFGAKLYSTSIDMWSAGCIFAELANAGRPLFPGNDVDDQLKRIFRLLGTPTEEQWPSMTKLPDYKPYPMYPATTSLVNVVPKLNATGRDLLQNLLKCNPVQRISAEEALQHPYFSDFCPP
Sequence of UniProt Q9UBS0 (whole entry, looked up): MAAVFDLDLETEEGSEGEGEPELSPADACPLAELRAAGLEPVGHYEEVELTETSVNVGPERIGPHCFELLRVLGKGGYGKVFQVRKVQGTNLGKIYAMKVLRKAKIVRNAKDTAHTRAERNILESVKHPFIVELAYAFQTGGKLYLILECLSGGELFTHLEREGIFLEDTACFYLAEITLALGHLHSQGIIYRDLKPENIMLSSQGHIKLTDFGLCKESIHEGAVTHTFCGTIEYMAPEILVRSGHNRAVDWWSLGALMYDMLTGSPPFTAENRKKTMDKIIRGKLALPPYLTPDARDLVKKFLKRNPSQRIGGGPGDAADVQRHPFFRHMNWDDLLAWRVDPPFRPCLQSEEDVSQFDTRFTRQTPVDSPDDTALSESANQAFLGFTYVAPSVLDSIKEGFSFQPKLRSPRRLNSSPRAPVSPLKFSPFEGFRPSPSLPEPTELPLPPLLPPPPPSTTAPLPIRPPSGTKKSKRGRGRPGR
Sequence of UniProt P29317 (whole entry, looked up): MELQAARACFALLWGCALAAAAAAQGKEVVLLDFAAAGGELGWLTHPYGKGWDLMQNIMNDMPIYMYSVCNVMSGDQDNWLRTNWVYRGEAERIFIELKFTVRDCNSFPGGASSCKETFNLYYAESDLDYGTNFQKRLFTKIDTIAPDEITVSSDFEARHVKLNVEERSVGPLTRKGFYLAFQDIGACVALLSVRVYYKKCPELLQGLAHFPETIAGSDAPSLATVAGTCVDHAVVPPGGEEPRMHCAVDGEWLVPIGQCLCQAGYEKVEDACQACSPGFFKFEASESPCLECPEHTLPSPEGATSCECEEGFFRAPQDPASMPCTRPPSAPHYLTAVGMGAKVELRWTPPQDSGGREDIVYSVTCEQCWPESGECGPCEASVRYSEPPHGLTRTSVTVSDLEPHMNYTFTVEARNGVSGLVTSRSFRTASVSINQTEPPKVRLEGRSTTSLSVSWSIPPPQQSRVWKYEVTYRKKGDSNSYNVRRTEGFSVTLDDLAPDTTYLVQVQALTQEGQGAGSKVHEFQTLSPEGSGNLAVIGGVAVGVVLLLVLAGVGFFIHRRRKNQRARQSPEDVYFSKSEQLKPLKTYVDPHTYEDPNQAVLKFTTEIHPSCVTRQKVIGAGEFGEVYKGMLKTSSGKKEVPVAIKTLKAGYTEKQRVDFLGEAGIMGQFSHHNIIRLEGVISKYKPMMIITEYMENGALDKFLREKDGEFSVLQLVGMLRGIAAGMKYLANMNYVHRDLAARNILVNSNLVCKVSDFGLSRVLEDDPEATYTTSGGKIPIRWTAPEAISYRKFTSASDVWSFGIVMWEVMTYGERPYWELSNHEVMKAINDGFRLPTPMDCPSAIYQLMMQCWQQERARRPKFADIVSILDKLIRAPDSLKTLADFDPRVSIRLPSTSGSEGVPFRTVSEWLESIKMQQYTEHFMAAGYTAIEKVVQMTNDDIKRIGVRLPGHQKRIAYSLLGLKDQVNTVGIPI
Sequence of UniProt Q8N5S9 (whole entry, looked up): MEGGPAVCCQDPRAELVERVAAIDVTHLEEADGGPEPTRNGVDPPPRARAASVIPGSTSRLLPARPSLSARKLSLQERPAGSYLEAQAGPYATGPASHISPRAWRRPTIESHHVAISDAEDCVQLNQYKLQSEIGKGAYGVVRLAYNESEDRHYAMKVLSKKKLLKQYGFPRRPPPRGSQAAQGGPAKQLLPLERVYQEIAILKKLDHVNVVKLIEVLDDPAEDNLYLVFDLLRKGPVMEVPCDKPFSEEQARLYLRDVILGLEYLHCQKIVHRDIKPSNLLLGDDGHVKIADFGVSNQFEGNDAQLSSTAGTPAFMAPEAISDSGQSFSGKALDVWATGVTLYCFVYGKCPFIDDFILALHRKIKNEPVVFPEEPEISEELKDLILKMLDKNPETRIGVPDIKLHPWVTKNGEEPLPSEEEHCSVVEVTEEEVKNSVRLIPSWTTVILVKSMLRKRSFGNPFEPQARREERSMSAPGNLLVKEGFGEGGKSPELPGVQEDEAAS

Sample 1 — effect on: binding; tested at: 1 µM; endpoint: remaining binding
Structure (SMILES): CN1CCN(C(=O)c2ccc(NC(=O)Nc3ccc(N(C)c4ccnc(Nc5ccc(CS(C)(=O)=O)cc5)n4)cc3)cc2)CC1
target = Serine/threonine-protein kinase TBK1 (TBK1, Homo sapiens, UniProt Q9UHD2); result = 55%
target = Serine/threonine-protein kinase RIO1 (RIOK1, Homo sapiens, UniProt Q9BRS2); result = 2.2%
target = NT-3 growth factor receptor (NTRK3, Homo sapiens, UniProt Q16288); technique = competition with immobilised ligand; result = 2%
target = Serine/threonine-protein kinase PLK3 (PLK3, Homo sapiens, UniProt Q9H4B4); result = 100%
target = Myosin light chain kinase (MYLK3, Homo sapiens, UniProt Q32MK0); technique = competition with immobilised ligand; result = 86%
target = Serine/threonine-protein kinase PAK 5 (PAK5, Homo sapiens, UniProt Q9P286); result = 67%
target = Serine/threonine-protein kinase TAO1 (TAOK1, Homo sapiens, UniProt Q7L7X3); technique = competition with immobilised ligand; result = 71%
target = Ephrin type-A receptor 3 (EPHA3, Homo sapiens, UniProt P29320); technique = competition with immobilised ligand; result = 79%

Sample 2 — action: inhibitor; tested at: 10 µM; reference: control; endpoint: remaining activity
Target: Diamine acetyltransferase 1 (Homo sapiens, UniProt P21673)
Residues (P21673 1-171): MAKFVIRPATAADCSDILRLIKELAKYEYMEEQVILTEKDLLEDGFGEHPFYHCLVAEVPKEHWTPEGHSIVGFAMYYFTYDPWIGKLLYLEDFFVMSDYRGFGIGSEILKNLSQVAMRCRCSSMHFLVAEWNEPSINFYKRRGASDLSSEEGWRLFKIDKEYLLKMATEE
SMILES = COc1ccc(C(=O)O)cc1; result = 109%
SMILES = CCCCCCCC/C=C\CCCCCCC(O)C(=O)O (racemic); result = 92.3%
SMILES = CCOC(=O)CCC(=O)OCC; result = 86.4%
SMILES = O=C(O)C=Cc1ccc(O)cc1; result = 92.6%
SMILES = C=C[C@H]1[C@H](O[C@@H]2O[C@H](CO)[C@@H](O)[C@H](O)[C@H]2O)OC=C2C(=O)OCC[C@]21O; result = 96.9%
SMILES = O=c1cc(-c2ccc(O)cc2)oc2cc(O)cc(O)c12; result = 88.5%
SMILES = COc1ccc([C@@H]2CC(=O)c3c(O)cc(O[C@@H]4O[C@H](CO)[C@@H](O)[C@H](O)[C@H]4O)cc3O2)cc1O; result = 98.2%
SMILES = c1ccc(Sc2ccccc2)cc1; result = 88.2%
SMILES = CCCCCCCCCCCCCCCCCCCC(=O)OC; result = 111%

Sample 3 — effect on: cell-free assay; technique: competition with immobilised ligand; tested at: 1 µM; endpoint: remaining binding
Structure (SMILES): CCC(=O)N[C@@H]1CC[C@H](C(=O)N(C)c2ccc(-c3nc4ccccc4o3)cc2)C1
target = Serine/threonine-protein kinase mTOR (MTOR, Homo sapiens, UniProt P42345); result = 99%
target = Tyrosine-protein kinase FRK (FRK, Homo sapiens, UniProt P42685); result = 100%
target = Megakaryocyte-associated tyrosine-protein kinase (MATK, Homo sapiens, UniProt P42679); result = 100%
target = Serine/threonine-protein kinase SBK1 (SBK1, Homo sapiens, UniProt Q52WX2); result = 100%
target = Platelet-derived growth factor receptor beta (PDGFRB, Homo sapiens, UniProt P09619); result = 98%
target = Serine/threonine-protein kinase 17B (STK17B, Homo sapiens, UniProt O94768); result = 99%
target = Mast/stem cell growth factor receptor Kit (KIT, Homo sapiens, UniProt P10721, A829P); result = 100%
target = Serine/threonine-protein kinase D3 (PRKD3, Homo sapiens, UniProt O94806); result = 100%

Sample 4 — effect on: enzyme activity; action: inhibitor; tested at: 0.5 µM; reference: control; endpoint: remaining activity
Structure (SMILES): COc1cc2ncnc(N3CCN(C(=O)Nc4ccc(Oc5ccccc5)cc4)CC3)c2cc1OC
target = Tyrosine-protein kinase Tec (TEC, Homo sapiens, UniProt P42680); result = 101%
target = Tyrosine-protein kinase Yes (YES1, Homo sapiens, UniProt P07947); result = 106%
target = Serine/threonine-protein kinase Sgk2 (SGK2, Homo sapiens, UniProt Q9HBY8); result = 96.7%
target = Maternal embryonic leucine zipper kinase (MELK, Homo sapiens, UniProt Q14680); result = 94.9%
target = Ribosomal protein S6 kinase beta-2 (RPS6KB2, Homo sapiens, UniProt Q9UBS0); result = 92.4%
target = Tyrosine-protein kinase JAK2 (JAK2, Homo sapiens, UniProt O60674); result = 99.3%
target = Tyrosine-protein kinase JAK1 (JAK1, Homo sapiens, UniProt P23458); result = 96.5%
target = Activin receptor type-1-like (ACVRL1, Homo sapiens, UniProt P37023); result = 93%
target = Protein kinase C zeta type (PRKCZ, Homo sapiens, UniProt Q05513); result = 96%
target = Ribosomal protein S6 kinase alpha-3 (RPS6KA3, Homo sapiens, UniProt P51812); result = 115%
target = Serine/threonine-protein kinase PAK 5 (PAK5, Homo sapiens, UniProt Q9P286); result = 96.8%
target = Ephrin type-A receptor 2 (EPHA2, Homo sapiens, UniProt P29317); result = 95.7%
target = Calcium/calmodulin-dependent protein kinase kinase 1 (CAMKK1, Homo sapiens, UniProt Q8N5S9); result = 92.9%
target = Vascular endothelial growth factor receptor 1 (FLT1, Homo sapiens, UniProt P17948); result = 79%
target = Ephrin type-A receptor 6 (EPHA6, Homo sapiens, UniProt Q9UF33); result = 89.6%
target = Receptor tyrosine-protein kinase erbB-2 (ERBB2, Homo sapiens, UniProt P04626); result = 100%
target = Casein kinase I isoform delta (CSNK1D, Homo sapiens, UniProt P48730); result = 103%
target = Cyclin-dependent kinase 5, with p35 (CDK5, Homo sapiens, UniProt Q00535); result = 99.8%
target = Dual specificity protein kinase CLK1 (CLK1, Homo sapiens, UniProt P49759); result = 89.4%
target = Protein kinase C theta type (PRKCQ, Homo sapiens, UniProt Q04759); result = 97.3%
target = Calcium/calmodulin-dependent protein kinase type 1 (CAMK1, Homo sapiens, UniProt Q14012); result = 96.9%

A few entries again (sample 3):
target = Serine/threonine-protein kinase SBK1 (SBK1, Homo sapiens, UniProt Q52WX2); result = 100%
target = Serine/threonine-protein kinase D3 (PRKD3, Homo sapiens, UniProt O94806); result = 100%
target = Mast/stem cell growth factor receptor Kit (KIT, Homo sapiens, UniProt P10721, A829P); result = 100%
target = Tyrosine-protein kinase FRK (FRK, Homo sapiens, UniProt P42685); result = 100%
target = Megakaryocyte-associated tyrosine-protein kinase (MATK, Homo sapiens, UniProt P42679); result = 100%
